Published values pooled from the literature.
Compare with care: the assays were run in different laboratories. “And” joins repeats or separate records; there may be more than shown. ± gives the spread as reported. Values after ≈ are worked out from the molar mass of the structure shown.
rep main protease: Replicase polyprotein 1ab, main protease (rep, Severe acute respiratory syndrome coronavirus 2, UniProt P0DTD1)
Matrix protein 2 S31N: Matrix protein 2 (Influenza A virus, UniProt P0DOF5, S31N)
Matrix protein 2: Matrix protein 2 (Influenza A virus, UniProt P0DOF5)

SMILES = CC[C@H](C)[C@H](NC(=O)[C@H](CC(=O)O)NC(=O)[C@@H]1CSCC(=O)N[C@H](Cc2ccc(O)cc2)C(=O)N[C@@H](Cc2ccc(O)cc2)C(=O)N[C@@H](CCCCN)C(=O)N2CCC[C@H]2C(=O)N[C@@H]([C@@H](C)O)C(=O)N1)C(=O)N[C@H](C(=O)N[C@@H](CC(C)C)C(=O)N[C@@H](Cc1ccccc1)C(=O)N[C@@H](Cc1c[nH]c2ccccc12)C(=O)N[C@@H](CO)C(N)=O)[C@@H](C)CC; target or system = rep main protease; assay = enzyme activity, inhibitor; measurement = IC50; value = > 50 µM
SMILES = CC(C)(C)[C@H](NC(=O)NC1(CS(=O)(=O)C(C)(C)C)CCCCC1)C(=O)N1C[C@H]2[C@@H]([C@H]1C(=O)N[C@H](C#N)C[C@@H]1CCNC1=O)C2(C)C; target or system = Replicase polyprotein 1ab, main protease H41A (rep, Severe acute respiratory syndrome coronavirus 2, UniProt P0DTD1, H3304A); assay = thermal shift; system = SARS-CoV-2; measurement = melting temperature; value = 67.1 ± 0.1 °C
SMILES = CC(C)(C)c1ncc(CNC23CC4CC(CC(C4)C2)C3)s1; target or system = Matrix protein 2 S31N; assay = channel activity, inhibitor; setting = concentration not given, S31N mutant; measurement = inhibition; value = inactive
SMILES = CC(C)C(=O)OC[C@H]1O[C@@](C#N)(n2ccc(N)nc2=O)[C@H](O)[C@@H]1O; target or system = SARS-CoV-2; assay = viral replication; system = Calu-3, Gamma; measurement = EC90; value = 3.5 ± 0.4 µM
SMILES = Clc1ncc(CNC23CC4CC(CC(C4)C2)C3)s1; target or system = Matrix protein 2 S31N; assay = proton channel activity, inhibitor; system = Influenzavirus A, S31N mutant; setting = 100 µM; measurement = inhibition; value = 42%
SMILES = COc1ccc(CNC23CC4C5CC6CC4C(C2)C(C6)C5C3)c(O)c1; target or system = Matrix protein 2 S31N; assay = binding; measurement = kon; value = < 43 M⁻¹ s⁻¹
SMILES = COc1ccc2ncc(F)c(CC[C@H]3OC[C@H](NCc4ccc(Cl)c(Cl)c4)CO3)c2n1; target or system = Mycobacterium tuberculosis; system = H37Rv katG deletion; measurement = MIC; value = 0.25 µg/mL (≈ 0.536 µM)
SMILES = c1nc(N2CCCCCC2)ncc1CNC12CC3CC(CC(C3)C1)C2; target or system = Matrix protein 2; assay = channel activity, inhibitor; setting = 100 µM; measurement = inhibition; value = 0.7 ± 0.7%
SMILES = c1nc(CNC23CC4CC(CC(C4)C2)C3)no1; target or system = Matrix protein 2 S31N; assay = proton channel activity, inhibitor; system = Influenzavirus A, S31N mutant; setting = 100 µM; measurement = inhibition; value = 52%
SMILES = N[C@@H](CCC(=O)N[C@@H](CS[Se]Cc1ccc(C(=O)Nc2cc(C(F)(F)F)c(Br)c(C(F)(F)F)c2)cc1)C(=O)NCC(=O)O)C(=O)O; target or system = Low molecular weight protein-tyrosine phosphatase A (Mycobacterium tuberculosis, UniProt P9WIA1, C16A/C53A); measurement = modified protein mass; value = 18.6 kDa
SMILES = O=c1cc(-c2ccc(O)cc2)oc2c([C@@H]3OC[C@H](O)[C@H](O)[C@H]3O)c(O)c([C@@H]3O[C@H](CO)[C@@H](O)[C@H](O)[C@H]3O)c(O)c12; target or system = Replicase polyprotein 1ab, main protease R188A (rep, Severe acute respiratory syndrome coronavirus 2, UniProt P0DTD1, R3451A); assay = 3CL protease activity, inhibitor; setting = concentration not given, 3CLpro R188A mutant; measurement = inhibition; value = 40.3%
SMILES = c1nc(N2CCCCC2)ncc1CNC12CC3CC(CC(C3)C1)C2; target or system = Matrix protein 2 S31N; assay = channel activity, inhibitor; setting = 100 µM; measurement = inhibition; value = 74.4 ± 3.3%
SMILES = CC[C@H](C)[C@H](NC(=O)[C@H](CCCCN)NC(=O)[C@@H](NC(=O)[C@H](CCC(N)=O)NC(=O)[C@H](CCCNC(=N)N)NC(=O)[C@@H]1CSCC(=O)N[C@H](Cc2ccc(O)cc2)C(=O)N[C@@H](CC(C)C)C(=O)N[C@@H](CCC(N)=O)C(=O)N[C@@H](Cc2ccc(O)cc2)C(=O)N[C@@H](C)C(=O)N[C@@H](C(C)C)C(=O)N[C@@H](CC(C)C)C(=O)N[C@@H](CCCNC(=N)N)C(=O)N[C@@H](Cc2c[nH]cn2)C(=O)N[C@@H](CCCCN)C(=O)N[C@@H](CCCNC(=N)N)C(=O)N[C@@H](CCCNC(=N)N)C(=O)N[C@@H](CCC(=O)O)C(=O)N1)[C@@H](C)CC)C(=O)N[C@@H](Cc1c[nH]c2ccccc12)C(=O)N[C@@H](Cc1ccccc1)C(=O)N[C@@H](CCC(N)=O)C(=O)N[C@@H](CC(N)=O)C(=O)N[C@@H](CCCNC(=N)N)C(=O)N[C@@H](CCCNC(=N)N)C(=O)N[C@@H](CCSC)C(=O)N[C@@H](CCCCN)C(=O)N[C@@H](Cc1c[nH]c2ccccc12)C(=O)N[C@@H](CCCCN)C(=O)N[C@@H](CCCCN)C(N)=O; target or system = rep main protease; assay = enzyme activity, inhibitor; measurement = IC50; value = 0.049 µM
SMILES = C1C2C1C1C3C4C5C6CC6C4C14CNCC54C23 (stereo not shown); target or system = Matrix protein 2 (Influenza A virus, UniProt P0DOF5, V27A); assay = ion channel, inhibitor; system = A/Udorn/72; setting = concentration not given; measurement = activity; value = inactive
SMILES = Cc1nc(CNC23CC4CC(CC(C4)C2)C3)c[nH]1; target or system = Matrix protein 2 S31N; assay = proton channel activity, inhibitor; system = Influenzavirus A, S31N mutant; setting = 100 µM; measurement = inhibition; value = 16%
SMILES = c1nc(N2CCCCCC2)cnc1CNC12CC3CC(CC(C3)C1)C2; target or system = Matrix protein 2 S31N; assay = channel activity, inhibitor; setting = 100 µM; measurement = inhibition; value = 84 ± 1.6%
SMILES = CC1OC(OC2C(OC(=O)C34CCC(C)(C)CC3C3=CCC5C6(C)CCC(OC7OC(CO)C(O)C(O)C7O)C(C)(C)C6CCC5(C)C3(C)CC4O)OCC(O)C2O)C(O)C(O)C1OC1OCC(O)C(OC2OCC(O)C(OC3OCC(O)C(O)C3O)C2O)C1O (stereo not shown); target or system = SARS-CoV-2; assay = viral infection; system = Vero, beta variant B.1.351; measurement = IC50; value = 1.47 µM
SMILES = OC12CC3CC(C1)CC(NCc1cnc(N4CCCCC4)nc1)(C3)C2; target or system = Matrix protein 2; assay = channel activity, inhibitor; setting = 100 µM; measurement = inhibition; value = 2 ± 2%
SMILES = CC(C)CC(C(=O)N1CC2(CC1C#N)C(=O)Nc1ccccc12)N(C)C(=O)c1cc2c(F)cc(F)c(F)c2[nH]1 (stereo not shown); target or system = Replicase polyprotein 1ab, main protease K90R/A193V (rep, Severe acute respiratory syndrome coronavirus 2, UniProt P0DTD1, A3456V/K3353R); setting = 3.16 µM; measurement = remaining activity; value = -0.734% and 0.013% and -0.244% and -0.894%
SMILES = Cc1nc(CNC23CC4CC(CC(C4)C2)C3)cs1; target or system = Matrix protein 2 S31N; assay = proton channel activity, inhibitor; system = Influenzavirus A, S31N mutant; setting = 100 µM; measurement = inhibition; value = 36%
SMILES = COc1ccc2ncc(F)c(C[C@H](O)[C@H]3OC[C@H](NCc4ccc5c(n4)NC(=O)CO5)CO3)c2c1; target or system = Mycobacterium tuberculosis; system = H37Rv katG deletion; measurement = MIC; value = 0.125 µg/mL (≈ 0.258 µM)
SMILES = O=C(NC1CCN(c2ncnc3[nH]cnc23)CC1)c1cccc(NS(=O)(=O)c2ccc(C(F)(F)F)cc2)c1; target or system = Replicase polyprotein 1ab, nsp14 R310A (rep, Severe acute respiratory syndrome coronavirus 2, UniProt P0DTD1, R6235A); assay = thermal shift; system = SARS-CoV-2; measurement = ΔTm; value = 5.8 °C and 5.2 °C

Some of these lines once more:
SMILES = O=C(NC1CCN(c2ncnc3[nH]cnc23)CC1)c1cccc(NS(=O)(=O)c2ccc(C(F)(F)F)cc2)c1; target or system = Replicase polyprotein 1ab, nsp14 R310A (rep, Severe acute respiratory syndrome coronavirus 2, UniProt P0DTD1, R6235A); assay = thermal shift; system = SARS-CoV-2; measurement = ΔTm; value = 5.8 °C and 5.2 °C
SMILES = c1nc(N2CCCCCC2)ncc1CNC12CC3CC(CC(C3)C1)C2; target or system = Matrix protein 2; assay = channel activity, inhibitor; setting = 100 µM; measurement = inhibition; value = 0.7 ± 0.7%
SMILES = c1nc(N2CCCCC2)ncc1CNC12CC3CC(CC(C3)C1)C2; target or system = Matrix protein 2 S31N; assay = channel activity, inhibitor; setting = 100 µM; measurement = inhibition; value = 74.4 ± 3.3%
